Measurements collected from several papers.
Protocols differ between the studies behind these lines. ± marks the error that the study gave.

`COC[C@@H](NC(C)=O)C(=O)NCc1ccc(-c2ccc(Cl)cc2)cc1` has a protective index of roughly 78 (MES seizure; Sprague-Dawley rat male; oral; reference: TD50 over ED50).
`CCCCCCCCCCCCC(=O)O.O=C1CCCC2C3CCCN4CCCC(CN12)C34` (stereo not shown): “limiting molar conductivity” 51.68 ± 0.07 S cm²/mol (conductometry; water; 308.15 K).
For `CC[C@@H]1C[C@]1(NC(=O)[C@@H]1C[C@@]2(CN1C(=O)[C@@H](NC(=O)[C@@H](NC(=O)[C@@H]1CCCCN1C(C)C)C1CCCCC1)C(C)(C)C)C(C)(C)C21CCC1)C(=O)NS(=O)(=O)N1CCCC1`, “subjects with abdominal pain” read 0% (human; oral, 50 mg, together with: ritonavir 100 mg simultaneously).
`COc1cc2ccnc(Cc3ccc(O[11CH3])c(OC)c3)c2cc1OC` has a kidney radioactivity of 42% (Sprague-Dawley rat; intravenous, dose not given, 30 min; reference: 5 min value).
`CC(C)[C@H](NC(=O)CNC(=O)[C@H](CCC(N)=O)NC(=O)[C@H](C)N)C(=O)O` — result for “discontinued due to adverse events”: 0% (human; intravenous infusion, 90 mg/kg/h, 2 h infusion).
For `COc1cc(NC(=O)C(=O)c2c(C)n(Cc3ccc(Cl)cc3)c3ccc(C)cc23)ccn1`, the AUC(0-inf) was 1570 ng·h/mL (cynomolgus monkey, male, plasma; intravenous, 1 mg/kg).
With `CCCC[C@H](NC(=O)CN1CCC(NC(=O)CN2CCC(NC(=O)CN3CCN(CC(=O)O)CCN(CC(=O)O)CCN(CC(=O)O)CC3)CC2)CC1)C(=O)N[C@H]1CC(=O)NCCCC[C@@H](C(N)=O)NC(=O)[C@H](Cc2c[nH]c3ccccc23)NC(=O)[C@H](CCCNC(=N)N)NC(=O)[C@@H](Cc2ccccc2)NC(=O)[C@H](Cc2c[nH]cn2)NC1=O` [gallium-68 labelled] the tissue uptake was 0.1 %ID/g (C57BL/6J mice male B16-F10 tumour, pancreas; 1 h post injection, unblocked).
`CC(=O)O[C@H]1CC[C@]2(C)[C@H]3C[C@@H](OC(C)=O)[C@]4(C)[C@@H](C5=CC(=O)OC5)CC[C@]4(O)[C@@H]3CC[C@@]2(N)C1` has a logD of 0.817 (pH 7.4).
With `CCCCCCCC(=O)N[C@@H](CCCCN)C(=O)N[C@H](C(=O)N[C@@H](C)C(=O)NCC(=O)N[C@@H](CCCCN)C(=O)N[C@H](C(=O)N[C@@H](C)C(=O)N[C@@H](CCCCN)C(=O)N[C@H](C(=O)N[C@@H](C)C(=O)NCC(=O)N[C@@H](CCCCN)C(=O)N[C@H](C(=O)N[C@@H](C)C(=O)N[C@@H](CCCCN)C(=O)N[C@H](C(=O)N[C@@H](C)C(=O)NCC(=O)N[C@@H](CCCCN)C(=O)N[C@H](C(=O)N[C@@H](C)C(N)=O)[C@@H](C)CC)[C@@H](C)CC)[C@@H](C)CC)[C@@H](C)CC)[C@@H](C)CC)[C@@H](C)CC` the melting temperature was roughly 60 °C (circular dichroism; POPE:TOCL vesicles).
For `CC[C@H](C)[C@H](NC(=O)[C@H](C)NC(=O)CNC(=O)[C@H](CCCCN)NC(=O)[C@@H](NC(=O)[C@H](CC(C)C)NC(=O)[C@H](C)NC(=O)CNC(=O)[C@H](CC(C)C)NC(=O)[C@@H](N)Cc1ccccc1)[C@@H](C)CC)C(=O)N[C@@H](Cc1c[nH]cn1)C(=O)NCC(=O)NCC(=O)N[C@@H](CCCNC(=N)N)C(=O)N[C@@H](Cc1ccccc1)C(=O)N[C@H](C(=O)N[C@@H](Cc1c[nH]cn1)C(=O)NCC(=O)N[C@@H](CCSC)C(=O)N[C@H](C(=O)N[C@@H](CCC(N)=O)C(=O)N[C@@H](CC(N)=O)C(=O)N[C@@H](Cc1c[nH]cn1)C(=O)N[C@@H](Cc1c[nH]cn1)C(N)=O)[C@@H](C)CC)[C@@H](C)CC`, “acute toxic concentration” read 5 to 25 µg/mL (zebrafish embryos; 1 h, 4, 28, 52 hpf).
`CCCCCCCCCCCCCCCCCC(=O)N=C(N)NCCC[C@H](NC(=O)[C@H](CC(C)C)NC(=O)[C@@H](CC(C)C)NC(=O)[C@H](Cc1ccc(O)cc1)NC(=O)[C@H](CO)NC(=O)[C@H](Cc1c[nH]c2ccccc12)NC(=O)[C@H](Cc1c[nH]cn1)NC(=O)[C@@H]1CCC(=O)N1)C(=O)N1CCC[C@H]1C(=O)NCC` — result for “conversion to leucine”: 90.7 ± 7.74% (human plasma; 28 days, pH 7.4, 37 °C).
For `CC1N=C(c2ccccc2F)c2cc(Br)ccc2-n2cnc(C(=O)OC3OC(CO)C(O)C(O)C3O)c21` (stereo not shown), “excretion in urine and feces” read 46 ± 4.1% (Swiss Webster mouse; intravenous, 250 µg of parent drug, 0 to 48 h; reference: dose).
The concentration of `CCN(Cc1ccccc1)C(=O)CCc1nc(CN2CCN(C(=O)Cc3ccc(OC)c(OC)c3)CC2)no1` is reported as 6.05 ng/mL (rat, plasma; intravenous, 1 mg/kg, 1 h).
`CC[C@H](C)C(=O)N1CCC(NC(=O)Nc2ccc(OC(F)(F)F)c(F)c2)CC1`: “subjects with urinary tract infection” 7.7% (healthy volunteers, both sexes; oral, 8 mg, fasted state).
For `Cn1ccc(-c2ccc(Cn3cc(C(=O)N[C@H]4CCCC[C@@H]4O)c4c(F)cc(F)cc43)cn2)n1`, “brain/plasma ratio Kp” read 0.115 (rat Sprague-Dawley, male, brain, plasma; intravenous, 0.20 to 0.25 mg/kg, 0.25 h, cassette dosing).
`CC(C)C[C@@H](N)C(=O)NCC(=O)N[C@H](C)C(=O)N[C@H](CO)C(=O)N[C@H](Cc1c[nH]c2ccccc12)C(=O)N[C@H](Cc1c[nH]cn1)C(=O)N[C@H](CCCNC(=N)N)C(=O)N1CCC[C@@H]1C(=O)N[C@H](CC(=O)O)C(=O)N[C@H](CCCCN)C(=O)N[C@H](CS)C(=O)N[C@H](CS)C(=O)N[C@H](CC(C)C)C(=O)NCC(=O)N[C@H](Cc1ccc(O)cc1)C(=O)N[C@H](CCC(N)=O)C(=O)N[C@H](CCCCN)C(=O)N[C@H](CCCNC(=N)N)C(=O)N1CCC[C@@H]1C(=O)N[C@H](CC(C)C)C(=O)N1CCC[C@@H]1C(N)=O` has a measured concentration of 477 ± 19 ng/mL (LC-MS/MS; rat plasma; 500 ng/mL, -80 to 25 °C, 3 freeze-thaw cycles).
For `CCNc1cc2[o+]c3cc(NCC)c(C)cc3c(-c3ccccc3C(=O)OCCOCC[18F])c2cc1C`, “tissue uptake ratio” read 18.9 (rat; 30 min; reference: heart over blood).
For `CCCC[C@H]1C(=O)N(C)[C@@H](CCCC)C(=O)N[C@@H](CCCNC(=O)CN2CCN(CC(=O)O)CCN(CC(=O)O)CCN(CC(=O)O)CC2)C(=O)N[C@H](C(=O)NCC(N)=O)CSCC(=O)N[C@@H](Cc2ccc(O)cc2)C(=O)N(C)[C@@H](C)C(=O)N[C@@H](CC(N)=O)C(=O)N2CCC[C@H]2C(=O)N[C@@H](Cc2c[nH]cn2)C(=O)N[C@@H](CC(C)C)C(=O)N(C)CC(=O)N[C@@H](Cc2c[nH]c3ccccc23)C(=O)N[C@@H](CO)C(=O)N[C@@H](Cc2c[nH]c3ccccc23)C(=O)N1C` [gallium-68 labelled], “tumour to muscle ratio” read 6.82 ± 0.65 (static PET; NOD/SCID mice, CHO-hPD-L1 xenograft, CHO-hPD-L1 tumour; intravenous, 1 h post injection, before PBS treatment).
`CC[C@@H](C)[C@H](NC(=O)[C@H](C)NC(=O)[C@H](CCCCN)NC(=O)[C@H](CC(C)C)NC(=O)[C@H](C)NC(=O)[C@@H](NC(=O)[C@H](Cc1c[nH]cn1)NC(=O)[C@H](CC(C)C)NC(=O)[C@@H](NC(=O)[C@@H](NC(=O)[C@H](CCCCN)NC(=O)[C@H](CCCCN)NC(=O)[C@H](C)NC(=O)[C@H](CO)NC(=O)[C@H](CCCCN)NC(=O)[C@H](Cc1ccccc1)NC(=O)[C@@H](NC(=O)[C@H](CCCCN)NC(=O)[C@H](CC(C)C)NC(=O)[C@H](Cc1ccccc1)NC(=O)[C@H](CO)NC(=O)[C@H](CCCCN)NC(=O)[C@H](Cc1c[nH]c2ccccc12)NC(=O)[C@H](CCCCN)NC(C)=O)[C@@H](C)O)[C@@H](C)O)C(C)C)[C@@H](C)O)C(=O)N[C@@H](CO)C(=O)N[C@@H](CO)C(N)=O`: “mean residue ellipticity” -20400 deg cm² dmol⁻¹ (circular dichroism at 222 nm; buffer with 50% TFE; 75 µM, 65 °C).
Under tissue concentration, `COC(=O)C[C@](O)(CCCC(C)(C)OC(C)=O)C(=O)O[C@@H]1C(OC)=C[C@]23CCCN2CCc2cc4c(cc2[C@H]13)OCO4` is recorded as “not detected” (CD1 mouse, heart; oral, 1 mg/kg, 24 h, below quantification limit 1.00 ng/mL).
Under cytotoxicity, `C=Cc1c(C)c2cc3nc(c(CC(=O)O)c4[nH]c(cc5nc(cc1[nH]2)C(C)=C5CC)c(C)c4C(=O)O)[C@@H](CCC(=O)NCCCC[C@H](NC(C)=O)C(=O)N[C@@H](Cc1ccccc1)C(=O)N[C@@H](Cc1ccccc1)C(=O)N[C@H](C(=O)N[C@@H](CC(C)C)C(=O)N[C@@H](CCCCN)C(=O)N[C@@H](CO)C(=O)NCC(=O)N[C@@H](CCC(N)=O)C(=O)NCC(=O)N[C@@H](Cc1ccc(O)cc1)C(=O)N[C@@H](CCCNC(=N)N)C(=O)N[C@@H](Cc1c[nH]c2ccccc12)C(=O)N[C@@H](CC(=O)O)C(=O)N[C@@H](CO)C(=O)N[C@@H](Cc1ccc(O)cc1)C(=O)N[C@@H](CCCNC(=N)N)C(=O)N[C@@H](Cc1c[nH]c2ccccc12)C(=O)N[C@@H](Cc1c[nH]cn1)C(=O)N1CCC[C@H]1C(=O)N[C@@H](CO)C(=O)N[C@@H](CS)C(=O)N[C@@H](C)C(=O)N[C@@H](CS)C(=O)NCC(=O)NCC(=O)N[C@@H](CO)C(=O)N[C@@H](CCCCN)C(N)=O)C(C)C)[C@@H]3C` is recorded as “not toxic” (CCK-8; 4T1, mouse; 1 to 200 µM, 24 h).
`CSCC[C@@H]1NC(=O)[C@@H]2CSSC[C@H](NC(=O)[C@H](CO)NC(=O)[C@H](C)N)C(=O)N[C@@H](CCCNC(=N)N)C(=O)N[C@@H]([C@@H](C)O)C(=O)N3CCC[C@H]3C(=O)N[C@@H](CCCCN)C(=O)N[C@@H](CC(=O)O)C(=O)N[C@H]3CSSC[C@H](NC(=O)[C@H](CCCCN)NC(=O)[C@H](CCCNC(=N)N)NC(=O)[C@H](CC(N)=O)NC1=O)C(=O)N[C@@H](CCCCN)C(=O)N[C@H]1CSSC[C@H](NC(=O)[C@@H]4CCCN4C(=O)[C@H](CC(=O)O)NC(=O)[C@H](C)NC3=O)C(=O)N[C@@H](C)C(=O)N[C@@H](CCCCN)C(=O)N[C@@H](CCC(=O)O)C(=O)N[C@@H]([C@@H](C)O)C(=O)NCC(=O)N[C@@H](CSSC[C@@H](C(N)=O)NC(=O)[C@H](CCCNC(=N)N)NC(=O)[C@H](CC(N)=O)NC1=O)C(=O)N1CCC[C@H]1C(=O)N[C@@H](Cc1ccc(O)cc1)C(=O)NCC(=O)N[C@@H](CCCCN)C(=O)N2` has an ALT of 59.6 U/L (DA rat, pristane-induced arthritis, serum; subcutaneous, 0.1 mg/kg once weekly, end of 21-day trial).

Excerpt of the above:
`COc1cc2ccnc(Cc3ccc(O[11CH3])c(OC)c3)c2cc1OC` has a kidney radioactivity of 42% (Sprague-Dawley rat; intravenous, dose not given, 30 min; reference: 5 min value).
For `COc1cc(NC(=O)C(=O)c2c(C)n(Cc3ccc(Cl)cc3)c3ccc(C)cc23)ccn1`, the AUC(0-inf) was 1570 ng·h/mL (cynomolgus monkey, male, plasma; intravenous, 1 mg/kg).
`CC(C)C[C@@H](N)C(=O)NCC(=O)N[C@H](C)C(=O)N[C@H](CO)C(=O)N[C@H](Cc1c[nH]c2ccccc12)C(=O)N[C@H](Cc1c[nH]cn1)C(=O)N[C@H](CCCNC(=N)N)C(=O)N1CCC[C@@H]1C(=O)N[C@H](CC(=O)O)C(=O)N[C@H](CCCCN)C(=O)N[C@H](CS)C(=O)N[C@H](CS)C(=O)N[C@H](CC(C)C)C(=O)NCC(=O)N[C@H](Cc1ccc(O)cc1)C(=O)N[C@H](CCC(N)=O)C(=O)N[C@H](CCCCN)C(=O)N[C@H](CCCNC(=N)N)C(=O)N1CCC[C@@H]1C(=O)N[C@H](CC(C)C)C(=O)N1CCC[C@@H]1C(N)=O` has a measured concentration of 477 ± 19 ng/mL (LC-MS/MS; rat plasma; 500 ng/mL, -80 to 25 °C, 3 freeze-thaw cycles).
